Results collected from several papers.
Lines come from different studies, so protocols differ.
Effect on: metabolic stability
Sample: liver microsomes

Compound	test system	setting	microsomal CLint [µL/min/mg]
O=C(C1CCN(c2nnnn2-c2ccccc2)CC1)N1CCCc2ccccc21	human	1 µM	> 578
CCCCCCCCN(CCC(=O)Nc1ccccc1)C(=O)c1ccccn1	male human	5 µM	40
O=C(C1CCN(c2nnnn2-c2ccccc2)CC1)N1CCOc2ccccc21	human	1 µM	98
Cc1ccc(N2C(=O)c3ccccc3NC23C(=O)N(C)c2ccc(Br)cc23)cc1 (stereo not shown)	human	–	> 300
Cc1cc(N2CC[C@@](C#N)(C3CC3)C2=O)cc(NC(=O)Cc2ccccc2)n1	human	0.5 µM	106
O=C(NCCNCCO)c1cn(Cc2ccc(F)cc2)c2cc(Cl)c(OCc3ccc(C(F)(F)F)cc3)cc2c1=O	human	1 µM	< 11.6
COc1cc(O)c(-c2cc(-c3cc(-c4c(O)cc(OC)c5c4C[C@@H](C)N[C@@H]5C)c4cc(C)cc(OC)c4c3O)c(O)c3c(OC)cc(C)cc23)c2c1[C@@H](C)N[C@H](C)C2	human	1 µM	< 11.6
CC12CC3(C)CC(C)(C1)CC(NC(=O)NC1CCC(Oc4ccc(C(=O)O)cc4)CC1)(C2)C3 (stereo not shown)	human	–	196
CNC(=O)c1cc(C)ccc1NC(=O)c1ccc(-c2c(C)ccc3[nH]ncc23)c(C)c1	human	2 µM	3
C[N+]1(CC(=O)OC2CCCCCCCCCCC2)CCCCC1	human	–	404
CNC(=O)C1CCN(c2cc(C)c(F)cc2NC(=O)c2ccc(-c3cc(O)ccc3C)c(C)c2)CC1	human	2 µM	11
Cc1cc(N2CCC(CO)(C3CC3)C2=O)cc(C(=O)NCc2cc(F)cc(-c3cnn(C)c3)c2)n1 (stereo not shown)	human	0.5 µM	41
CNC(=O)c1cc(C)ccc1NC(=O)c1ccc(-c2cc(O)ccc2C)c(C)c1	human	2 µM	3
O=C(NCCNCCO)c1cn(Cc2ccccc2)c2c(Cl)c(OCc3ccc(C(F)(F)F)cc3)c(Cl)cc2c1=O	human	1 µM	< 11.6
NC[C@@H](C(=O)Nc1ccc(-c2cn[nH]c2)cc1)c1ccccc1	human	–	8.56
CNC(=O)C1CCN(c2ccccc2NC(=O)c2ccc(-c3cc(O)ccc3C)c(C)c2)CC1	human	2 µM	37
CC12CC3CC(C)(C1)CC(NC(=O)NC1CCC(Oc4ccc(C(=O)O)cc4)CC1)(C3)C2 (stereo not shown)	human	–	84
COc1cc(C)c(-c2ccc(O)c3c2C[C@@H](C)N[C@@H]3C)c2cccc(O)c12 (single isomer, unassigned)	human	1 µM	15.4
CCn1cc(C(=O)NCCNCCO)c(=O)c2cc(OCc3ccc(C(C)(C)C)cc3)c(Cl)cc21	human	1 µM	< 11.6

Some of these lines once more:
Compound	test system	setting	microsomal CLint [µL/min/mg]
O=C(NCCNCCO)c1cn(Cc2ccccc2)c2c(Cl)c(OCc3ccc(C(F)(F)F)cc3)c(Cl)cc2c1=O	human	1 µM	< 11.6
NC[C@@H](C(=O)Nc1ccc(-c2cn[nH]c2)cc1)c1ccccc1	human	–	8.56
